Experimental data from different studies.
Numbered parts are unrelated; each lists some results of a single study.

Block 1 — method: RNA Bind-n-Seq; molecule type: RNA; medium: in vitro; concentration: 200 nM; notes: whole 134-nt RNA, ends assumed; with: 150 mM LiCl; reference: input library; direction: higher = stronger binding; library: 7-deaza-guanosine replaces G
Target: Fragile X messenger ribonucleoprotein 1, C-terminal low-complexity region (Fmr1, Mus musculus, UniProt P35922)
Constant ends, left off below: GGGAGUUCUACAGUCCGACGAUC … UGGAAUUCUCGGGUGUCAAGG
Strand	log2 enrichment
UUCUGGUCUGCUCACCAGAGGUUCUUCAAAUACUUAUGCAUAGCAUCCAAAGUUAAAAGGGUUGUGCAACUAGCUCGAGAGGAAAUCAAG	-1.08
CCUGUGCUACACAUCGUAUGUACCGAAUCGGUUUUUUGGGUUUUUUGGGGUUUUUUGGGGAAAGUAUUAUGUUACGCCGUUCGGAUCUGC	-1.17
UUCCUUCCACGACCCCUGAAGAGCAGCGGUGGGUCUGAGCAUCCUAUCUCCAGGAAGCAGGCCAGCAGGCAAGCCAGCUGCCACCUCGUC	0.743
AAGUCCUGUGCUACACAUCGUAUGUACCGAAUCGGAAAAAAAGGAAAAAAAGGAGGAAAGUAUUAUGUUACGCCGUUCGGAUCUGCACUU	-1.17
CUCAAGUCCUGUGCUACACAUCGUAUGUACCGAAUCGGUUUGGUUUGGUUUGGGAAAGUAUUAUGUUACGCCGUUCGGAUCUGCACUUCC	-0.529
GCAGGAAGUAAAAACAAAUGGAAAUGCUUCGGAUAGUGGCAGGGGUGGGGGUUGCUAAGGAAAGGGUGGGCUGGGAGUGGGUAAAGAGUU	1.18
UAACUUUAGAGGAGGAUCUGAUGGAUAUGGCAGUGGACGUGGAUUUGGGGAUGGCUAUAAUGGGUAUGGAGGAGGACCUGGACGUGGCAA	0.153
CUCAAGUCCUGUGCUACACAUCGUAUGUACCGAAUCGGAAAAAAAGGAGGUGGAAAGUAUUAUGUUACGCCGUUCGGAUCUGCACUUCCA	-0.732

Block 2 — method: RNA Bind-n-Seq; molecule type: RNA; medium: in vitro; concentration: not given; reference: input RNA pool; direction: higher = stronger binding
Target: RING finger protein unkempt homolog, zinc fingers 1-6, GST-SBP tag (UNK, Homo sapiens, UniProt Q9C0B0, residues 30-357)
Notes: RNA with constant flanks, human-mouse chimeric sites, ends assumed
Constant ends, left off below: GGGAGUUCUACAGUCCGACGAUC … CAACAGAGGAUUGAGCAUCA
Residues (chain): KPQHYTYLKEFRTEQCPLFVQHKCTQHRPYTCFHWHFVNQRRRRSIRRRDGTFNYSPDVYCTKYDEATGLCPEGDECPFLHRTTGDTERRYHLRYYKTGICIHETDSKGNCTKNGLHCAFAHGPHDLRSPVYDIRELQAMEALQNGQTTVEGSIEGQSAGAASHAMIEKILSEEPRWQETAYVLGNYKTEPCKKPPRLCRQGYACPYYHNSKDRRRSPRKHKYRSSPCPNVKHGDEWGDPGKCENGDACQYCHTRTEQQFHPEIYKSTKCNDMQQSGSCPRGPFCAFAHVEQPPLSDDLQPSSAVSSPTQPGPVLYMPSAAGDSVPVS
Strand	bound/input enrichment
GGUGGGGUGGUCAUUGCCGUUUGAGCUCUGCUGAUUCAUGAGUCGCCUUCAAAACUCUCGUGUAGGGUUGACAAUGUGGGGGGGUGGGGGAUCCAGCUAUUUUUUUUAUUUUCAAGUCCA	7.46 ratio
ACCUCCCCCUCCCGCCUCACCCCACCCCCGCUUUUUGGAAAGUUUUUGGCGUUUCUUUUUUUUAGAAAUACAAAGUGGUUUUUACCACCCCCGCAAGGGUCUAUCGAAGGGCUUGACGGA	1.92 ratio
CACAGAGCAGCACCUACCCCCUCCUCCUUUCCACACCUGCAAACUCUUUUGCCUGGGCUGAAUAUUUAGUGUAAUUACAUCUCAGCUUUGAGGGCUCCCUGUGGCAAUUCCCGGAUUAAA	1.09 ratio
GUAAUGUUUAUUCAUUUAACUUAUUUUUAUAGCUAGAGCAAUAUUGUUAGUCUUAGACAAUAGCUCACAUUUUUUGAGAAGCAUGCCCUCCCUGUCCAUUUGUCUUAUAACAUGACCCAG	31.9 ratio
AGUUCCAAACCACCAUCAGAAAUGAAGAUGAGAUUACCCAGACGAGCCAAAACAGCUAGCACUAGAAAAAGUAAACUUAACCUUGCAGAGUUCCUUAAUGAAGAUACAAGUUAAGAGAGC	2.85 ratio
CCAAUCGUGGAGCAGUACUUGAAGACAAAGAAAAAUUCUAAUAAUUUAAUCAUCAAGUACAUUAGCUGCCGCCUGCUGACACUCAUCAUUAUACUGUUAGCGUGUAUCUACCUGGGCUAU	0.379 ratio
AAAGAGAAACUAAAGCAACUAAUAGAGAAGAGGAUUGGGCAAAGAGAUUUCAUAGAGAAACUAGGAUUUAUUAGCAAACAUGAGUUAUAUUCCAGAGCGUCUCAGAAAACCCCAGCCAAC	3.25 ratio
GCGGCAGAAUCAUGGAGGACAUAAUGCAGCUCCCCAAAGCGCGCGUCAACGCCGGCAUGCUAGCUCAGUAUAUCGACCGGCCCGUGUGCUUCGUGGGGAAGCUGGAAAAGAUUCAUCCCA	0.0659 ratio

Block 3 — method: universal PBM; molecule type: double-stranded DNA, one strand shown; medium: in vitro; concentration: 600 nM; direction: higher = stronger binding
Target: Sal-like protein 4, full length isoform A (SALL4, Homo sapiens, UniProt Q9UJQ4, residues 1-1053)
Sequence of UniProt Q9UJQ4 (whole entry, looked up): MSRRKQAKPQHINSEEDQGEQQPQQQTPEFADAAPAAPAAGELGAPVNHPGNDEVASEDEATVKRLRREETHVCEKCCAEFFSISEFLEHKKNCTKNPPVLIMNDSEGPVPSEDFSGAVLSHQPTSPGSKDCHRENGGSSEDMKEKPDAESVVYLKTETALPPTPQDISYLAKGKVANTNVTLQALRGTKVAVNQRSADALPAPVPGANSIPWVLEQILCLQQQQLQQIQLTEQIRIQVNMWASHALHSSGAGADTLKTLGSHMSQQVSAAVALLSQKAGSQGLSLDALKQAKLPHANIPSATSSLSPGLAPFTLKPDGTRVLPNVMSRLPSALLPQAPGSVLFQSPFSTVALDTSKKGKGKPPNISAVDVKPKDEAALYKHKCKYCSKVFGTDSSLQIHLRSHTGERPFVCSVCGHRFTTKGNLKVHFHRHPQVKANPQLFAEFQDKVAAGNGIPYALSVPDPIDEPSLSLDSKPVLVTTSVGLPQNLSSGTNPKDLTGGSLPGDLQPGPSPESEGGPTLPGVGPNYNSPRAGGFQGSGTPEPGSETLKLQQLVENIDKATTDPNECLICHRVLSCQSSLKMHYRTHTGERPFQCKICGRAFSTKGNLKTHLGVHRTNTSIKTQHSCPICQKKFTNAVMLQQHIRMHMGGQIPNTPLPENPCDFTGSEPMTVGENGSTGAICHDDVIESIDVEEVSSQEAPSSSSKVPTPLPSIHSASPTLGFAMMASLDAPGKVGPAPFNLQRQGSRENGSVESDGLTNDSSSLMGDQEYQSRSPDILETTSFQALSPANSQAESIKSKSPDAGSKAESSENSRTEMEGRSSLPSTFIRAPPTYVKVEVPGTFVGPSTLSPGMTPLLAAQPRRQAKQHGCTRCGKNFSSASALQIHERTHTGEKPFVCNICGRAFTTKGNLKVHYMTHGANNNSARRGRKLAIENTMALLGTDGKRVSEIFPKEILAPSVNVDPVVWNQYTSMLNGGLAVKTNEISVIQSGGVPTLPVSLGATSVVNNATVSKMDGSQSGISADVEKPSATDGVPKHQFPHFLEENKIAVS
Notes: 8-mer, flanks averaged, mean of replicates
Strand	E-score
CGTGGAAG	-0.113
AGTATTAC	0.264
CCTGGTTC	-0.239
GGTATCTA	0.183
AATATCCT	0.185
ATTCCTGA	0.121
ACGTTCCT	0.153
GGATTGCC	-0.305
AGGATGCA	-0.145
CCGTTGCA	-0.158
TTAGGAAA	0.242
ACAACCTA	-0.0382
CGAGTCGC	-0.309
ATCCAATG	-0.0181
AAGCCGCG	-0.208
AAGTAGCC	-0.247
ACCTGGCC	-0.321
CGATGAGA	0.0492
ACCTTCAT	0.0163
TGGCCAAA	-0.0321
GATCGACA	0.0418

Block 4 — method: RNA Bind-n-Seq; molecule type: RNA; medium: in vitro; concentration: 365 nM; reference: no-protein control; direction: higher = stronger binding
Target: RNA binding protein fox-1 homolog 2, RRM domain, GST-SBP tag (RBFOX2, Homo sapiens, UniProt O43251-10, residues 100-194)
Notes: natural RNA segment, single round, ends assumed
Constant ends, left off below: GGGAGUUCUACAGUCCGACGAUC … UGGAAUUCUCGGGUGCCAA
Target sequence (chain): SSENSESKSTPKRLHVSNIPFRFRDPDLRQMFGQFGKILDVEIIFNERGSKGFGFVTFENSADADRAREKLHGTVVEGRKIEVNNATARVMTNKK
Strand	RBNS enrichment (R)
CACUGCACUCCAGCCUGGCAACAGAGCAAGACUCCGUCUCAAAAAAGUGAAAAGAGAUUCAACCAAGAGGACAGCUCUGGAGCAGAAAAAUACAUGUUUAUAGGAUGCGA	0.478
AUUAAAAGAUGAUGCUAUUACAACUAGCAUUGCCUCAAAAACUGGGACCAACCAAAGUGUGUCAACCCUGUUUCCUUAAAAGAGGCUAUGAAUCCCAAAGGCCACAUCCA	0.313
CUUUCCCAAUGCCCUUGCCUGCCCUGGAGCUUCUAGGGCCACCUCUAGCAUCUGGAGACCGAAUAUCCCCAUGCUCAGAAGUAAAGUGACAAUCAGAACCAGGUACAAGC	0.429
CAGCUCUAGCUAUCCAGCAGACUUUUCAUUAUGACUUACAUGGCAGGAGCUCUAAUUAUGCUUUAAAAAUCUGUUGUGGAGAUUGCUUUAAAUGCUCCCUGCCUGGUGUG	0.553
CCACAGAAGGGCAGGGGUCUGCUUUGUGGCCACAGUAGGGUAAACCCCAGUUGCAUUUAUCGAGCCUUUCUGAUGGCCACAUAGCUCCUGGCAGUGGGUUGGAAGAUUUC	2.88
GAAGGAAGCGUCUACAGAGAACGGUUUCCAACAUCCAUCGCUGCAGCAGACGGUGUCCCUCAGUGACUUGAGAGACAAGGACAAGGAAAUGUGCUGGGCCAAGGAGCUGC	0.44
AGAUGAAAUCUGUUCUGGGAAUGUUUCAGCAGCCAAUAAGUGCCCGAGCACACUGCCCCCGGUUGCCUGCCUGGGCCCCAUGUGGAAGGCAGAUGCCUGCUCGCUCUGUC	0.331
UUCCACCCGCUCUCUGUAUUUUCAAUGUUUUUCUCUCAGCGCCUUGCCUUAACAAUCCCCAGACAGUGUUCUCUCAAGCAGUGUUCCAGACUUGUUGGGUGUGAAGAUAA	0.776

Block 5 — method: protein-binding microarray; molecule type: double-stranded DNA, one strand shown; medium: in vitro; concentration: not given; direction: higher = stronger binding
Target: Hepatocyte nuclear factor 3-beta, forkhead domain (FOXA2, Homo sapiens, UniProt Q9Y261, residues 142-269)
Notes: k-mer, scored over probes, only values ≥0.25
Construct (chain): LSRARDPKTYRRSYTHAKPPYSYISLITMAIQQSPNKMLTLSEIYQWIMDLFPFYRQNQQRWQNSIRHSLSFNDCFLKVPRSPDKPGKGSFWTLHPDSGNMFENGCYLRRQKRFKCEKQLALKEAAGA
Strand	E-score
ATTATATG	0.27
ATTATACC	0.279
TACAGATA	0.318
ACTTGATA	0.262
ATTCTACA	0.308
CATGACAC	0.251
ATGGTACA	0.255
ATTAGCAA	0.256
AATATTCA	0.295
ATATCATA	0.403
GTGTATAA	0.284
ATGACAAT	0.322
ACACTATC	0.285
ATAACGAA	0.329
CTAATACA	0.303
ATATTTGA	0.272
GTGTATGA	0.295
AATACAAG	0.314
AATGATAG	0.263
GATTGTCA	0.256
TCTATGCA	0.293

Some of these lines once more (block 4):
Strand	RBNS enrichment (R)
CACUGCACUCCAGCCUGGCAACAGAGCAAGACUCCGUCUCAAAAAAGUGAAAAGAGAUUCAACCAAGAGGACAGCUCUGGAGCAGAAAAAUACAUGUUUAUAGGAUGCGA	0.478
AUUAAAAGAUGAUGCUAUUACAACUAGCAUUGCCUCAAAAACUGGGACCAACCAAAGUGUGUCAACCCUGUUUCCUUAAAAGAGGCUAUGAAUCCCAAAGGCCACAUCCA	0.313
CUUUCCCAAUGCCCUUGCCUGCCCUGGAGCUUCUAGGGCCACCUCUAGCAUCUGGAGACCGAAUAUCCCCAUGCUCAGAAGUAAAGUGACAAUCAGAACCAGGUACAAGC	0.429
CAGCUCUAGCUAUCCAGCAGACUUUUCAUUAUGACUUACAUGGCAGGAGCUCUAAUUAUGCUUUAAAAAUCUGUUGUGGAGAUUGCUUUAAAUGCUCCCUGCCUGGUGUG	0.553
CCACAGAAGGGCAGGGGUCUGCUUUGUGGCCACAGUAGGGUAAACCCCAGUUGCAUUUAUCGAGCCUUUCUGAUGGCCACAUAGCUCCUGGCAGUGGGUUGGAAGAUUUC	2.88
GAAGGAAGCGUCUACAGAGAACGGUUUCCAACAUCCAUCGCUGCAGCAGACGGUGUCCCUCAGUGACUUGAGAGACAAGGACAAGGAAAUGUGCUGGGCCAAGGAGCUGC	0.44
AGAUGAAAUCUGUUCUGGGAAUGUUUCAGCAGCCAAUAAGUGCCCGAGCACACUGCCCCCGGUUGCCUGCCUGGGCCCCAUGUGGAAGGCAGAUGCCUGCUCGCUCUGUC	0.331
UUCCACCCGCUCUCUGUAUUUUCAAUGUUUUUCUCUCAGCGCCUUGCCUUAACAAUCCCCAGACAGUGUUCUCUCAAGCAGUGUUCCAGACUUGUUGGGUGUGAAGAUAA	0.776
